Measurements gathered from unrelated publications.
Lines come from different studies, so protocols differ. Values joined by “and” are separate records of one study, mostly repeats; a detail may differ. ± marks the error that the study gave.
Maoa: Amine oxidase [flavin-containing] A (Maoa, Rattus norvegicus, UniProt P21396)
Sequence of UniProt P21396 (whole entry, looked up): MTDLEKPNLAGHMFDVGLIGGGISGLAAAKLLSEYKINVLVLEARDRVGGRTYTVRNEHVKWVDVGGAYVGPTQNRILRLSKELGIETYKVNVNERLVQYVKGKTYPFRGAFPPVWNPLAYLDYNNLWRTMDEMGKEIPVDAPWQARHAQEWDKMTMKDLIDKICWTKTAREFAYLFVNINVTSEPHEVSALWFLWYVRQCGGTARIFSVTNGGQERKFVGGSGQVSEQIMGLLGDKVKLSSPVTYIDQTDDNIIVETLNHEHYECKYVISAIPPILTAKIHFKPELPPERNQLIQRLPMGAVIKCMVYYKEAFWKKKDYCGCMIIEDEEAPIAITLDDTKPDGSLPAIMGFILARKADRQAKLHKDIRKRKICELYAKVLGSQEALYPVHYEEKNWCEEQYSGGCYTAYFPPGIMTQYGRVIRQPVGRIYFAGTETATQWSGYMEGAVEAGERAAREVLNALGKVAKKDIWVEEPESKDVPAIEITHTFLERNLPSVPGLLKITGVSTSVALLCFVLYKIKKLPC
GAP50: Glideosome-associated protein 50 (GAP50, Plasmodium falciparum, UniProt Q8I2X3)
Sequence of UniProt Q8I2X3 (whole entry, looked up): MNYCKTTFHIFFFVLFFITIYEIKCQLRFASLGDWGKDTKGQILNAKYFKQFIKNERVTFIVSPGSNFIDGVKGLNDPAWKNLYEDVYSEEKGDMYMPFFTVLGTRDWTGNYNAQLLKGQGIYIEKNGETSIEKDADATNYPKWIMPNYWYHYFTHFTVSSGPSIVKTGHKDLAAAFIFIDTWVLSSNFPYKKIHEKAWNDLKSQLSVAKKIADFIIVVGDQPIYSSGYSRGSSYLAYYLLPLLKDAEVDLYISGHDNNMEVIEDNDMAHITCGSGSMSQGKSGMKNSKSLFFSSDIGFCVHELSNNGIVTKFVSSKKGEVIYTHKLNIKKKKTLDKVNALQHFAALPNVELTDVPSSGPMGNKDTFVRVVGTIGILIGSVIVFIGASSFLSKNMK
NOD2 LRR domain: Nucleotide-binding oligomerization domain-containing protein 2, LRR domain (NOD2, Homo sapiens, UniProt Q9HC29)
Sequence of UniProt Q9HC29 (whole entry, unmodified, looked up): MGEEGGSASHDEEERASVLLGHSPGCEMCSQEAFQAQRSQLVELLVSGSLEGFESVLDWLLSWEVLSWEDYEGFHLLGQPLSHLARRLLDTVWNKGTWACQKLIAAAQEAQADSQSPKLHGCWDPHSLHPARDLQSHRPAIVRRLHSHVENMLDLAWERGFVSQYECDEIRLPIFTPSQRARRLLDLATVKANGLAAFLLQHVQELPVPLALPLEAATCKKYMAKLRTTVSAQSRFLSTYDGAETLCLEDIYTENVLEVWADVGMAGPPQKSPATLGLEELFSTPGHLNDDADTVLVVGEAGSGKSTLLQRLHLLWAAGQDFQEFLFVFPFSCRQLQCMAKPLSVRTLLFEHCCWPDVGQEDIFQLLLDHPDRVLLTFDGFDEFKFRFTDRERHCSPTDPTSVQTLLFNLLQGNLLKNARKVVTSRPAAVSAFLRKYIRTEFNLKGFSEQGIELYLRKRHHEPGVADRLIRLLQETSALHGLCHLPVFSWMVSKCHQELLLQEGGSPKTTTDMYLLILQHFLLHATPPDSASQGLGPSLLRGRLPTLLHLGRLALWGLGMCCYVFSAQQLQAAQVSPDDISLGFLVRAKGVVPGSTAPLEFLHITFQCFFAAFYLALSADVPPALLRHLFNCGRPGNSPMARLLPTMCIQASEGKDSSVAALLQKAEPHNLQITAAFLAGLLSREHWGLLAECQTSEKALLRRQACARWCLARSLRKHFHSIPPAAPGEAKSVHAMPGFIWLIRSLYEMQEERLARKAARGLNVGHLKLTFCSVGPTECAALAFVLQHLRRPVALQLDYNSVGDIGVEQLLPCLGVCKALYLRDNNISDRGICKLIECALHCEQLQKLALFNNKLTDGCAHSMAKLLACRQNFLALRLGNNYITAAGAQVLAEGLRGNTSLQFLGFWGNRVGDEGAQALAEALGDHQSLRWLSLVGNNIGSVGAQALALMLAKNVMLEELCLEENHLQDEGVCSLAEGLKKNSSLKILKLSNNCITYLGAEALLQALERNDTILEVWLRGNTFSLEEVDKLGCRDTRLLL
uncharacterized protein: uncharacterized protein (Pelagibacter ubique, UniProt Q4FKZ8)
USP51 ZnF-UBD domain: Ubiquitin carboxyl-terminal hydrolase 51, ZnF-UBD domain (USP51, Homo sapiens, UniProt Q70EK9)
Sequence of UniProt Q70EK9 (whole entry, looked up): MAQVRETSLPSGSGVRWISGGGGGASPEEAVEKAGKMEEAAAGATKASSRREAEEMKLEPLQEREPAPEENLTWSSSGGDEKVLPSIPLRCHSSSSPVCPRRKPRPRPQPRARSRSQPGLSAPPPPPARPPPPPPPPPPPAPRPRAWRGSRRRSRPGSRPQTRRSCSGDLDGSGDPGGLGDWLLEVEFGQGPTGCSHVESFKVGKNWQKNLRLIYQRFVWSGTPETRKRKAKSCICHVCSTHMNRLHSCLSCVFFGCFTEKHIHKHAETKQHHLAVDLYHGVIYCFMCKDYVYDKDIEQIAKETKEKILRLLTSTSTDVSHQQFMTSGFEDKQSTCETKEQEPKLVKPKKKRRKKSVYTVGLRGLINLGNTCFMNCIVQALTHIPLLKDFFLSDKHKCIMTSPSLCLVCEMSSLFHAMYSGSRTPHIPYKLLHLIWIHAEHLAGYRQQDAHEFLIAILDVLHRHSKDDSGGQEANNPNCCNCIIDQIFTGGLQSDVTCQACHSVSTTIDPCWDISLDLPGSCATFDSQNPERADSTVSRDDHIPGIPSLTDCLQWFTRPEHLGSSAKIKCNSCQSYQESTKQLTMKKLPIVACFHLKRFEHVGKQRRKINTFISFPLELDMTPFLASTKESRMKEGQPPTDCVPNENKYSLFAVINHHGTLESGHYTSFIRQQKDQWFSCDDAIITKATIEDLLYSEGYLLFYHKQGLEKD
Sequence of UniProt P31641 (whole entry, unmodified, looked up): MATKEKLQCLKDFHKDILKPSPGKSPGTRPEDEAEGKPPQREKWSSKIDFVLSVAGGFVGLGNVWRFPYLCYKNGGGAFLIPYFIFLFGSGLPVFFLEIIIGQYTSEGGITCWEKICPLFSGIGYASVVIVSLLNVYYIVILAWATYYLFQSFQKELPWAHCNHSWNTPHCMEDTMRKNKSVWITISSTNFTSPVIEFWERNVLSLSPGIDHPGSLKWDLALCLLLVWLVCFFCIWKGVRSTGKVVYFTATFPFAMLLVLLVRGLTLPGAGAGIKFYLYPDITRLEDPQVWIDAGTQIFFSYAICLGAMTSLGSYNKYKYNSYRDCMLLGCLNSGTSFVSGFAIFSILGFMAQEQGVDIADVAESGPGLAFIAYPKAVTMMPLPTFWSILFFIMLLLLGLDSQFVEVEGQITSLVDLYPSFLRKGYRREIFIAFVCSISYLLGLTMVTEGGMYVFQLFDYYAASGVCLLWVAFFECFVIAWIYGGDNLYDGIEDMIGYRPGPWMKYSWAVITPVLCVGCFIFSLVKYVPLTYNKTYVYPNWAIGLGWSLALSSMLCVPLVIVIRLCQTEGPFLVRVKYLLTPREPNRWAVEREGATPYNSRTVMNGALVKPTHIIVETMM
Sequence of UniProt P11142 (whole entry, looked up): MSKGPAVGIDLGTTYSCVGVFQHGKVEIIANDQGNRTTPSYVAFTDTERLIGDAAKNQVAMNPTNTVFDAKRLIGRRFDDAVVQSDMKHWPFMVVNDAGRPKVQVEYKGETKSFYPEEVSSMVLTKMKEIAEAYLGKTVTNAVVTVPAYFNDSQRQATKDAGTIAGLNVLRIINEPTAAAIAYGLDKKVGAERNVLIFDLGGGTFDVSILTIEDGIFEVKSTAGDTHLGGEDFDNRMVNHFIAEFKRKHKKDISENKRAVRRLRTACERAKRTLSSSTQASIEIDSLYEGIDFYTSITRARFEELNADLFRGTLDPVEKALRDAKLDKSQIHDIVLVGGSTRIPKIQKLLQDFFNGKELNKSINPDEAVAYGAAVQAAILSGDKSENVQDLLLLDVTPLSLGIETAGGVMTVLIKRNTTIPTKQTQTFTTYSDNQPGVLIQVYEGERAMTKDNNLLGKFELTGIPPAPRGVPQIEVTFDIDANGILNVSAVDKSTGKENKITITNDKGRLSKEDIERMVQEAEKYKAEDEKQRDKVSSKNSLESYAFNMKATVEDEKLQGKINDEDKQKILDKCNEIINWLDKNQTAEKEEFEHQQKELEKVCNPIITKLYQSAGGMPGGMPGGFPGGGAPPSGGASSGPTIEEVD

N#CC(=Cc1cnc[nH]1)C(N)=O
Kd (2-mercaptoethanol; thiol adduct formation, UV-visible titration; PBS; pH 7.4): 32800 ± 570 µM

NCc1ccc(F)cc1
Kd (Maoa; pH 7.5, deprotonated amine, pKa-corrected): 1.7 µM

Nc1ncnc2c1ncn2[C@@H]1O[C@H](COP(=O)(O)OP(=O)(O)OP(=O)(O)O)[C@@H](O)[C@H]1O
Kd (HSP90AA1 (Homo sapiens, UniProt P07900); binding, fluorescence polarization competition; together with: geldanamycin-FITC): 112 µM

COc1ccc(SCC(=O)N2c3ccccc3Sc3ccccc32)cc1
Kd (GAP50; binding, surface plasmon resonance; 1:1 binding model): 19.3 µM

C[C@H](N)C(=O)N[C@H](CCC(=O)O)C(N)=O
Kd (NOD2 LRR domain; binding, SPR, immobilised ligand; LRR domain wild type): 0.428 ± 0.049 µM

c1ccc(-c2nnc3c4ccccc4c(N4CCNCC4)nn23)cc1
Kd (GAP50; binding, surface plasmon resonance; 1:1 binding model): 19.7 µM

OC[C@H]1OC(O)[C@H](O)[C@@H](O)[C@@H]1O (stereo partly drawn)
Kd (Putative transcription factor Ovo-like 1 (OVOL1, Homo sapiens, UniProt O14753); binding, microscale thermophoresis): > 2000 µM

NCC(=O)O
Kd (uncharacterized protein; isothermal titration calorimetry; Candidatus Pelagibacter ubique): 5.5 µM and 5.41 µM

O=C(O)Cc1nc2ccccc2o1
Kd (USP51 ZnF-UBD domain): > 1000 µM

Nc1ncnc2c1ncn2[C@H]1O[C@@H](CO)[C@H](O)[C@@H]1O
Kd (Heat shock cognate 71 kDa protein, nucleotide-binding domain (HSPA8, Homo sapiens, UniProt P11142); binding, SPR; nucleotide-binding domain, residues 1-381): > 1000 µM

Fc1ccc(-c2nc(-c3c[nH]c4ccc(Br)cc34)[nH]c2-c2ccc(F)cc2)cc1
Kd (GAP50; binding, surface plasmon resonance; 1:1 binding model): 48.3 µM

O=C(O)Cc1cc(-c2ccc(C(=O)O)s2)sc1-c1ccc(-c2sc(-c3ccc(C(=O)O)s3)cc2CC(=O)O)s1
Kd (Microtubule-associated protein tau, 0N4R isoform, aggregated (MAPT, Homo sapiens, UniProt P10636); binding, fluorescence; 50% sucrose tau fraction): 0.203 µM

COc1cc2ncc(-c3ccccc3)nc2cc1OC
Kd (FLT3 (Homo sapiens, UniProt P36888); competition binding; 11-point threefold dilution): 0.062 µM

O=C(O)CCn1cnc2ccccc21
Kd (USP51 ZnF-UBD domain): > 1000 µM

C[C@@H](O)[C@H](N)C(=O)O
Kd (SAR11_1346 protein (Candidatus Pelagibacter sp.); binding, direct isothermal titration calorimetry): < 0.005 µM

O=C(O)Cn1cc2ccccc2n1
Kd (USP51 ZnF-UBD domain): > 1000 µM

C[C@H](O)C(=O)O
Kd (T156H-R445H zinc sensor protein; binding, fluorescence lifetime; no Zn2+): 52 ± 10 µM

CCCN1CCN(c2cccc(-c3cnccc3N3CCCC4(CCNC4=O)C3)c2)CC1 (stereo not drawn)
Kd (PARP16 (Homo sapiens, UniProt Q8N5Y8); SILAC displacement; LS174T-L5 cell lysate): 23.8 µM

CC(C)(COP(=O)(O)OP(=O)(O)OC[C@H]1O[C@@H](n2cnc3c(N)ncnc32)[C@H](O)[C@@H]1OP(=O)(O)O)[C@@H](O)C(=O)NCCC(=O)NCCS
Kd (Probable N-acetyltransferase 14 (NAT14, Homo sapiens, UniProt Q8WUY8); competitor, competition MS pulldown; SW-620 cell lysate; together with: photo-immobilized beads): 1.45 µM

CC(C)C[C@@H]1NC(=O)[C@H](C(C)C)NC(=O)CNC(=O)[C@H](CC(N)=O)NC(=O)[C@@H]2CCCN2C(=O)[C@H](Cc2ccc(O)cc2)NC(=O)[C@H](CCCNC(=N)N)NC(=O)[C@H](Cc2ccccc2)NC(=O)[C@@H](NC(=O)[C@H](CCCCN)NC(=O)[C@H](C)NC(=O)[C@H](CO)NC(=O)[C@H](C)NC(=O)[C@@H](N)Cc2ccc(O)cc2)CSSC[C@@H](C(=O)N[C@H](C(N)=O)[C@@H](C)O)NC(=O)[C@H](C)NC1=O
Kd (fucoidan; binding, isothermal titration calorimetry; pH 7.0, 25 °C): 0.44 µM

O=C(O)CCc1nc2ncccn2n1
Kd (USP51 ZnF-UBD domain): > 1000 µM

Cc1ccc(-c2c(C#N)c(N)n3c(nc4ccccc43)c2C#N)cc1
Kd (His-SUMO-FSP1; binding, SPR steady-state): 0.255 µM

COc1cccc(C=O)c1O
Kd (Aromatic O-demethylase, cytochrome P450 subunit (gcoA, Amycolatopsis sp., UniProt P0DPQ7); binding, ferric spin-state titration; Amycolatopsis sp. ATCC 39116; ferric enzyme without reductase): 28 ± 4 µM

CC(=O)NC1C(O)OC(CN)C(O)[C@@H]1O[C@H](C)C(=O)N[C@@H](C)C(=O)N[C@H](CCC(=O)O)C(N)=O (stereo partly drawn)
Kd (Nucleotide-binding oligomerization domain-containing protein 2, LRR domain (NOD2, Homo sapiens, UniProt Q9HC29, R877A); surface plasmon resonance; LRR mutant R877A): 0.827 ± 0.113 µM

Nc1nc2c(ncn2[C@@H]2O[C@H](COP(=O)(O)OP(=O)(O)OP(=O)(O)O)[C@@H](O)[C@H]2O)c(=O)[nH]1
Kd (GTP-binding protein gtr2, with Gtr1 (gtr2, Schizosaccharomyces pombe, UniProt O74544, F161W); binding, UV crosslinking equilibrium titration; 4 °C, no 7.4): 0.027 µM

CC1CCN(CCCNC(=O)c2cc3[nH]ccc3cc2Cl)CC1
Kd (Nuclear receptor subfamily 4 group A member 2 (Homo sapiens, UniProt P43354); isothermal titration calorimetry; 25 °C): no binding

[Ca+2].[Cl-].[Cl-]
Kd (Metacaspase-2 (MCA2, Trypanosoma brucei brucei, UniProt Q585F3); binding, high-affinity site, intrinsic fluorescence; pH 7.4, 25 °C): 3 ± 0.3 µM

O=C(O)Cc1cccc2cccnc12
Kd (USP51 ZnF-UBD domain): > 1000 µM

CCCC(CCC)C(=O)O
Kd (HDAC10 (Homo sapiens, UniProt Q969S8); inhibitor, competition pulldown; SW620 and MV4-11 lysate; 1 h): > 3020 µM

CC(C)C[C@H](N)C(=O)O
Kd (SAR11_1346 protein (Candidatus Pelagibacter sp.); binding, competition isothermal titration calorimetry; together with: serine 5 mM competitor): 2.88e-05 µM and 2.23e-05 µM

c1ccc(C[C@@H]2CN(c3nccc(Oc4ccc(-n5ccnc5)cc4)n3)CCN2)cc1
Kd (GAP50; binding, surface plasmon resonance; 1:1 binding model): 53.9 µM

CC(=O)N[C@@H]1[C@@H](O)[C@H](O)[C@@H](CO)O[C@H]1O
Kd (NOD2 LRR domain; binding, SPR, immobilised ligand; LRR domain wild type): 0.354 ± 0.04 µM

O=C(Nc1ccncc1)c1cn(Cc2ccc(Cl)c(Cl)c2)c(=O)c2cnn(C3CCNCC3)c12
Kd (Fascin (FSCN1, Homo sapiens, UniProt Q16658); binding): 0.08 µM

CC[C@H](C)[C@H](NC(=O)[C@H](CC(C)C)NC(=O)[C@H](Cc1ccc(OP(=O)(O)O)cc1)NC(=O)[C@H](CCC(=O)O)NC(=O)[C@H](CC(=O)O)NC(=O)[C@H](C)NC(=O)[C@H](CC(=O)O)NC(=O)[C@@H](NC(=O)[C@@H](NC(=O)[C@H](CC(=O)O)NC(=O)[C@H](CC(=O)O)NC(=O)[C@H](CCSC)NC(=O)c1ccc2c(c1)C(=O)OC21c2ccc(N(C)C)cc2Oc2cc(N(C)C)ccc21)C(C)C)C(C)C)C(=O)N1CCC[C@H]1C(=O)N[C@@H](CCC(N)=O)C(=O)N[C@@H](CCC(N)=O)C(=O)NCC(=O)N[C@@H](Cc1ccccc1)C(=O)N[C@@H](CC(=O)O)C(=O)O
Kd (Tyrosine-protein kinase ABL2, SH2 domain (ABL2, Homo sapiens, UniProt P42684); binding): 0.282 µM

CCCCCCC/C=C/C(=O)N1C(=O)CC(=O)C1CC(C)C (stereo not drawn)
Kd (acetyl-CoA acetyltransferase (Streptococcus macacae, UniProt G5JW77)): 2.52 µM

OCCC#Cc1nc(-c2ccc(F)cc2)c(-c2ccncc2)n1CCCc1ccccc1
Kd (GAP50; binding, surface plasmon resonance; 1:1 binding model): 28.3 µM

Nc1nc2c(ncn2[C@H]2C[C@H](OP(=O)(O)OP(=O)(O)O)[C@@H](COP(=O)(O)OP(=O)(O)O)O2)c(=O)[nH]1
Kd (Amidophosphoribosyltransferase (purF, Escherichia coli, UniProt P0AG16)): 2.6 µM

CS(=O)(=O)c1ccc(-c2cccc(C=C(C#N)C(N)=O)n2)cc1
Kd (2-mercaptoethanol; thiol adduct formation, UV-visible titration; PBS; pH 7.4): 180 ± 4 µM

O=C(O)CCn1sc2ccccc2c1=O
Kd (USP51 ZnF-UBD domain): > 1000 µM

Cc1ccc(Oc2ccc(NC(=O)CNc3ccccc3N3CCCC3=O)cc2)cc1
Kd (GAP50; binding, surface plasmon resonance; 1:1 binding model): 1.95 µM

N=C(N)NCC(=O)O
Kd (SLC6A6 (Homo sapiens, UniProt P31641, E406A); microscale thermophoresis; E406A mutant): 59 ± 20.1 µM

Nc1ncnc2c1ncn2[C@@H]1O[C@H](COP(=O)(O)OP(=O)(O)OP(=O)(O)O)[C@@H](O)[C@H]1O
Kd (cmk (Bifidobacterium longum, UniProt A0ACD7UKP5); binder, isothermal titration calorimetry; 25 °C): 2.2 µM

O=C(O)CCOc1ccccc1
Kd (USP51 ZnF-UBD domain): > 1000 µM

Cc1nc2ccc(Oc3ccccc3)cc2c2c1CCN2CCc1ccccc1
Kd (GAP50; binding, surface plasmon resonance; 1:1 binding model): 52.6 µM

NCc1ccccc1
Kd (Maoa; binding, steady-state isotope effects; pH 7.5): 460 µM

Cc1ccc2c(c1C)NC(=O)[C@]21NN=C(c2ccccc2)S1
Kd (GAP50; binding, surface plasmon resonance; 1:1 binding model): 0.532 µM

O=C(O)CCC1=Nc2cccc3cccc(c23)N1
Kd (USP51 ZnF-UBD domain): > 1000 µM

Cc1cn([C@H]2C[C@H](O)[C@@H](COP(=O)(O)OP(=O)(O)OP(=O)(O)O)O2)c(=O)[nH]c1=O
Kd (DNA repair protein REV1, residues 1-746 (REV1, Saccharomyces cerevisiae, UniProt P12689); substrate, rapid chemical quench; pH 7.5, 30 °C, together with: primer-template DNA): 700 ± 100 µM

Cc1cc2nc3c(=O)[nH]c(=O)nc-3n(C[C@H](O)[C@H](O)[C@H](O)COP(=O)(O)OP(=O)(O)OC[C@H]3O[C@@H](n4cnc5c(N)ncnc54)[C@H](O)[C@@H]3O)c2cc1C
Kd (Gametocyte-specific factor 1 (GTSF1, Homo sapiens, UniProt Q8WW33); binding, MS pulldown competition; SW-620 cell lysate): 1.88 µM

C[N+](C)(C)CC(=O)O
Kd (uncharacterized protein; binding, competition isothermal titration calorimetry; Candidatus Pelagibacter ubique; together with: glycine competitor): 0.00196 ± 0.00023 µM

COc1ccc(CN)cc1
Kd (Maoa; steady-state isotope effects; pH 7.5): 58 µM

For quick reference, copied from above:
Cc1nc2ccc(Oc3ccccc3)cc2c2c1CCN2CCc1ccccc1
Kd (GAP50; binding, surface plasmon resonance; 1:1 binding model): 52.6 µM

NCc1ccccc1
Kd (Maoa; binding, steady-state isotope effects; pH 7.5): 460 µM

Cc1ccc2c(c1C)NC(=O)[C@]21NN=C(c2ccccc2)S1
Kd (GAP50; binding, surface plasmon resonance; 1:1 binding model): 0.532 µM

O=C(O)CCC1=Nc2cccc3cccc(c23)N1
Kd (USP51 ZnF-UBD domain): > 1000 µM

Cc1cn([C@H]2C[C@H](O)[C@@H](COP(=O)(O)OP(=O)(O)OP(=O)(O)O)O2)c(=O)[nH]c1=O
Kd (DNA repair protein REV1, residues 1-746 (REV1, Saccharomyces cerevisiae, UniProt P12689); substrate, rapid chemical quench; pH 7.5, 30 °C, together with: primer-template DNA): 700 ± 100 µM

Cc1cc2nc3c(=O)[nH]c(=O)nc-3n(C[C@H](O)[C@H](O)[C@H](O)COP(=O)(O)OP(=O)(O)OC[C@H]3O[C@@H](n4cnc5c(N)ncnc54)[C@H](O)[C@@H]3O)c2cc1C
Kd (Gametocyte-specific factor 1 (GTSF1, Homo sapiens, UniProt Q8WW33); binding, MS pulldown competition; SW-620 cell lysate): 1.88 µM
